Measurements collected from several papers.
Every numbered part comes from another study and shows a few of its results, in no order. Changes are numbered by the printed parent chain.
Sequence of UniProt Q5BJF2 (whole entry, looked up): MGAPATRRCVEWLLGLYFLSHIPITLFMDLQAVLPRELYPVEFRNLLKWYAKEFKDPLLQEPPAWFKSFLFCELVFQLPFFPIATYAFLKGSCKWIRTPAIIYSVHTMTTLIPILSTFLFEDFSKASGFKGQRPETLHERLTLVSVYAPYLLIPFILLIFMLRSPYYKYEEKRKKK

Sample 1 — target: NFE2L2, bZIP domain (human); method: DHFR protein complementation; medium: yeast; relative to: wild-type JUN-FOS pair; direction: higher = stronger binding
Setting: single substitutions, most at no-binding floor
Starting sequence: JUN, bZIP domain (human); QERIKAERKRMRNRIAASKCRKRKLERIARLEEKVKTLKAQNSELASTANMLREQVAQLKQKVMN; partner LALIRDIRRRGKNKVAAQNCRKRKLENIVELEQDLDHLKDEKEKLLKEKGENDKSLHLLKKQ
| Change | binding fitness [natural log] |
| --- | --- |
| Q55L | -1.55 |
| T37I | -1.33 |
| L31D | -1.42 |
| E44Q | -1.47 |
| Q55N | -1.48 |
| A49H | -1.46 |
| E32I | -1.57 |
| A29Y | -1.36 |

Sample 2 — method: RNAcompete; molecule type: RNA; medium: in vitro; concentration: 20 nM; setting: 7-mer, probes averaged, single round; relative to: mean of 7-mers; direction: higher = stronger binding
Target: PABPC1L2, full length, GST fusion (mouse, UniProt A0ABA7IW68)
Target sequence (chain): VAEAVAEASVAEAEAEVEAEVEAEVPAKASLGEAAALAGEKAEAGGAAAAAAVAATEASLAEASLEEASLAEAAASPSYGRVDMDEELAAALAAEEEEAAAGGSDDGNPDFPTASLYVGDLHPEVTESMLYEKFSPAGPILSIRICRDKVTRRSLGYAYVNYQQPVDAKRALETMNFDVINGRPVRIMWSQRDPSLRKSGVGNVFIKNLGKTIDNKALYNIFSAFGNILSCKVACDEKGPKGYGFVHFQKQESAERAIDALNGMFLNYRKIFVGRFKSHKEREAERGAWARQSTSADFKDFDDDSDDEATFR
| Oligonucleotide | 7-mer Z-score |
| --- | --- |
| CUCCGGU | -0.202 |
| GUUUACU | -0.342 |
| CGAUACC | -0.177 |
| CAAGUAU | -0.0428 |
| CUUAUUG | -0.197 |
| GGCAGGU | 0.158 |
| UGAUAAG | -0.166 |
| GCCUAUA | -0.133 |

Further values, each from its own experiment
| SMILES | target or system | test | test system | conditions | endpoint | result |
| --- | --- | --- | --- | --- | --- | --- |
| CCn1nccc1C(C)NS(=O)(=O)c1ccc(Br)s1 (stereo not drawn) |  |  | mouse, microsomes or S9 | 2 µM, 0.5 h | remaining compound | 44.8% |
| C[C@H](NC(=O)Nc1cc2[nH]ncc2c(CO)n1)c1ccccn1 | TMEM97 (Homo sapiens, UniProt Q5BJF2) | cell-free assay |  | 10 µM | inhibition | 20.8% |

Excerpt of the above (sample 2):
| Oligonucleotide | 7-mer Z-score |
| --- | --- |
| CUCCGGU | -0.202 |
| CAAGUAU | -0.0428 |
| CGAUACC | -0.177 |
